Results of several laboratories.
Protocols differ between the studies behind these lines.
Organism: Pseudomonas aeruginosa

CC[C@H](C)[C@H](NC(=O)[C@H](CC(C)C)NC(=O)[C@H](CO)NC(=O)[C@H](CC(C)C)NC(=O)[C@@H](N)CCSC)C(=O)N[C@@H](Cc1ccccc1)C(=O)N[C@@H](CC(C)C)C(=O)N[C@@H](Cc1c[nH]cn1)C(=O)N[C@@H](CCCNC(=N)N)C(=O)N[C@@H](CC(C)C)C(=O)N[C@@H](CCCCN)C(=O)N[C@@H](CO)C(=O)N[C@@H](CCSC)C(=O)N[C@@H](CCCNC(=N)N)C(=O)N[C@@H](CCCCN)C(=O)N[C@@H](CCCNC(=N)N)C(=O)N[C@@H](CC(C)C)C(=O)N[C@@H](CC(=O)O)C(=O)N[C@@H](CCCNC(=N)N)C(=O)N[C@@H](CCCCN)C(=O)N[C@@H](CC(C)C)C(=O)N[C@@H](CCCNC(=N)N)C(=O)N[C@@H](CC(C)C)C(=O)N[C@@H](Cc1c[nH]c2ccccc12)C(=O)N[C@@H](Cc1c[nH]cn1)C(=O)N[C@@H](CCCNC(=N)N)C(=O)N[C@@H](CCCCN)C(=O)N[C@@H](CC(N)=O)C(=O)N[C@@H](Cc1ccc(O)cc1)C(=O)N1CCC[C@H]1C(=O)O — MIC (ATCC 27853): 20 µg/mL
CC(C)C[C@@H]1NC(=O)CSC[C@@H]2NC(=O)[C@H](CCCCN)NC(=O)[C@H](CC(C)C)NC(=O)[C@H](CCCCN)NC(=O)[C@H](CCCCNC(=O)[C@H](CC(C)C)NC1=O)NC(=O)[C@H](CC(C)C)NC(=O)[C@H](CC(C)C)NC(=O)CSC[C@@H](C(=O)N[C@@H](CCCCN)C(N)=O)NC(=O)[C@H](CC(C)C)NC(=O)[C@H](CCCCN)NC(=O)[C@H](CCCCN)NC2=O — MIC (PAO1; 18 h): > 256 µg/mL
CC(C)[C@H](NC(=O)[C@H](CCCCN)NC(=O)[C@H](CCCNC(=N)N)NC(=O)[C@@H](NC(=O)[C@H](C)NC(=O)[C@H](CC(N)=O)NC(=O)[C@H](CCCNC(=N)N)NC(=O)[C@@H](NC(=O)[C@H](CCCCN)NC(=O)[C@H](CCCCN)NC(=O)[C@@H](NC(=O)[C@@H](NC(=O)[C@H](CCCNC(=N)N)NC(=O)[C@H](CCCNC(=N)N)NC(=O)[C@H](Cc1c[nH]c2ccccc12)NC(=O)[C@H](Cc1c[nH]c2ccccc12)NC(=O)CN)[C@@H](C)O)C(C)C)C(C)C)C(C)C)C(=O)O — MIC (CMCC 10104; 18 h, 37 °C): 8 µg/mL
N=C(N)NCCC[C@@H]1NC(=O)[C@H](CCCNC(=N)N)NC(=O)[C@H](CCCNC(=N)N)NC(=O)[C@H](Cc2c[nH]c3ccccc23)NC(=O)[C@H](Cc2c[nH]c3ccccc23)NC(=O)[C@H](Cc2c[nH]c3ccccc23)NC(=O)[C@H](CCCNC(=N)N)NC1=O — MIC (broth microdilution; PAO1; 37 °C): 37 µg/mL
CC[C@H](C)[C@@H]1NC(=O)CNC(=O)[C@H](CCCCN)NC(=O)[C@H](C)NC(=O)[C@H](CCC(=O)O)NC(=O)[C@H](Cc2ccccc2)NC(=O)[C@H](CO)NC(=O)[C@H](CC(C)C)NC(=O)[C@H](C(C)C)NC(=O)[C@H](CC(=O)O)NC(=O)[C@@H](NC(=O)[C@@H](NC(=O)[C@@H](N)C(C)C)[C@@H](C)O)CSSC[C@@H]2NC(=O)[C@H](CO)NC(=O)CNC(=O)CNC(=O)[C@H](CCCCN)NC(=O)[C@H](CCCCN)NC(=O)[C@H](CCCNC(=N)N)NC(=O)[C@H](CC(C)C)NC(=O)[C@H](C)NC(=O)[C@H]([C@@H](C)CC)NC(=O)[C@@H]3CSSC[C@@H](C(=O)N[C@@H](CCCNC(=N)N)C(=O)N[C@@H](CC(N)=O)C(=O)O)NC(=O)[C@H](C(C)C)NC(=O)[C@H](CSSC[C@H](NC(=O)[C@H](C)NC(=O)[C@H](CO)NC(=O)[C@H](Cc4c[nH]cn4)NC(=O)[C@H](CC(N)=O)NC(=O)[C@H](C(C)C)NC(=O)[C@H](C)NC1=O)C(=O)N[C@@H](C)C(=O)N[C@@H](CC(C)C)C(=O)N[C@@H](Cc1c[nH]cn1)C(=O)N3)NC(=O)[C@H](C(C)C)NC(=O)CNC(=O)[C@H](CC(N)=O)NC(=O)[C@H](CCC(N)=O)NC2=O — MIC (broth microdilution; KCTC 1637; 16 h, 37 °C): 3.1 µM
NCCCC[C@H](NC(=O)[C@@H]1CSCC(=O)N[C@@H](CCCCN)C(=O)N[C@@H](Cc2ccccc2)C(=O)N[C@@H](CCCCN)C(=O)N[C@H]2CCCCNC(=O)[C@H](CCCCN)NC(=O)[C@H](Cc3ccccc3)NC(=O)[C@H](CCCCN)NC(=O)CSC[C@H](NC(=O)[C@H](Cc3ccccc3)NC(=O)[C@H](Cc3ccccc3)NC(=O)[C@H](CCCCN)NC2=O)C(=O)N[C@@H](Cc2ccccc2)C(=O)N[C@@H](Cc2ccccc2)C(=O)N[C@@H](Cc2ccccc2)C(=O)N1)C(N)=O — MIC (PAO1; 18 h): > 256 µg/mL
C[C@@](O)(C(F)F)[C@H](NC(=O)c1ccc(C#CC#CC2CC2)cc1)C(=O)NO — MIC (broth microdilution; PAO1, CAMHB): 0.125 µg/mL
CC(C)[C@H](NC(=O)[C@H]1NC(=O)[C@H](CO)NC(=O)[C@H](CC(N)=O)NC(=O)[C@@H](N)Cc2c[nH]c3cc(ccc23)C1C(N)=O)C(=O)N[C@H]1Cc2cn(cn2)C(c2ccc(O)cc2)[C@@H](C(=O)N[C@@H](CCCNC(=N)N)C(=O)N[C@@H](Cc2ccccc2)C(=O)O)NC(=O)[C@H](CO)NC1=O (stereo partly drawn) — MIC (PA01): 8 µg/mL
CC[C@@H](C)[C@@H](NC(=O)[C@@H](C)NC(=O)[C@@H](CCCCN)NC(=O)[C@@H](CC(C)C)NC(=O)[C@@H](C)NC(=O)[C@H](NC(=O)[C@@H](Cc1c[nH]cn1)NC(=O)[C@@H](CC(C)C)NC(=O)[C@H](NC(=O)[C@H](NC(=O)[C@@H](CCCCN)NC(=O)[C@@H](CCCCN)NC(=O)[C@@H](C)NC(=O)[C@@H](CO)NC(=O)[C@@H](CCCCN)NC(=O)[C@@H](Cc1ccccc1)NC(=O)[C@H](NC(=O)[C@@H](CCCCN)NC(=O)[C@@H](CC(C)C)NC(=O)[C@@H](Cc1ccccc1)NC(=O)[C@@H](CO)NC(=O)[C@@H](CCCCN)NC(=O)[C@@H](Cc1c[nH]c2ccccc12)NC(=O)[C@@H](CCCCN)NC(C)=O)[C@H](C)O)[C@H](C)O)C(C)C)[C@H](C)O)C(=O)N[C@H](CO)C(=O)N[C@H](CO)C(N)=O — MIC (broth microdilution; PAK; 24 h, 37 °C): 5.2 µM
CC1C(=NOCc2cc(-c3ccc(Cl)cc3)no2)C(C)C(c2ccc(Cl)cc2)OC1c1ccc(Cl)cc1 (stereo not drawn) — MIC (microbial growth, broth dilution; MTCC741; 24 h): 25 µg/mL
CC[C@@H](C)[C@@H](NC(=O)[C@@H](C)NC(=O)[C@@H](CCCCN)NC(=O)[C@@H](CC(C)C)NC(=O)[C@@H](C)NC(=O)[C@H](NC(=O)[C@@H](Cc1c[nH]cn1)NC(=O)[C@@H](CC(C)C)NC(=O)[C@H](NC(=O)[C@H](NC(=O)[C@@H](CCCCN)NC(=O)[C@@H](CCCCN)NC(=O)[C@@H](C)NC(=O)[C@@H](CO)NC(=O)[C@@H](CCCCN)NC(=O)[C@@H](Cc1ccccc1)NC(=O)[C@H](NC(=O)[C@@H](CCCCN)NC(=O)[C@@H](CC(C)C)NC(=O)[C@@H](Cc1ccccc1)NC(=O)[C@@H](CO)NC(=O)[C@@H](CCCCN)NC(=O)[C@@H](Cc1c[nH]c2ccccc12)NC(=O)[C@@H](CCCCN)NC(C)=O)[C@H](C)O)[C@H](C)O)C(C)C)[C@H](C)O)C(=O)N[C@H](CO)C(=O)N[C@H](CO)C(N)=O — MIC (PAO1): 8 µg/mL
CC[C@H](C)[C@H](NC(=O)[C@H](CCCNC(=N)N)NC(=O)[C@H](Cc1ccccc1)NC(=O)[C@H](CC(C)C)NC(=O)[C@H](CCCCN)NC(=O)[C@H](CO)NC(=O)[C@@H](NC(=O)[C@H](CC(C)C)NC(=O)[C@H](CCCCN)NC(=O)[C@H](C)NC(=O)[C@H](CC(N)=O)NC(=O)[C@H](CCCNC(=N)N)NC(=O)[C@H](Cc1ccc(O)cc1)NC(=O)[C@H](C)NC(=O)[C@@H](NC(=O)[C@H](CCCCN)NC(=O)[C@H](CC(N)=O)NC(=O)[C@H](CCCCN)NC(=O)[C@H](CC(C)C)NC(=O)[C@H](CO)NC(=O)[C@H](CC(C)C)NC(=O)[C@H](C)NC(=O)[C@H](C)NC(=O)[C@H](CO)NC(=O)[C@@H](NC(=O)[C@@H](NC(=O)[C@H](Cc1c[nH]c2ccccc12)NC(=O)[C@@H](NC(=O)[C@H](CO)NC(=O)[C@@H](NC(=O)[C@@H](N)CC(C)C)C(C)C)C(C)C)[C@@H](C)CC)[C@@H](C)CC)C(C)C)C(C)C)C(=O)N[C@@H](C)C(=O)N[C@@H](CC(C)C)C(=O)O — MIC (broth microdilution; ATCC 27853; 24 h, 37 °C): 8 µg/mL

Excerpt of the above:
CC(C)C[C@@H]1NC(=O)CSC[C@@H]2NC(=O)[C@H](CCCCN)NC(=O)[C@H](CC(C)C)NC(=O)[C@H](CCCCN)NC(=O)[C@H](CCCCNC(=O)[C@H](CC(C)C)NC1=O)NC(=O)[C@H](CC(C)C)NC(=O)[C@H](CC(C)C)NC(=O)CSC[C@@H](C(=O)N[C@@H](CCCCN)C(N)=O)NC(=O)[C@H](CC(C)C)NC(=O)[C@H](CCCCN)NC(=O)[C@H](CCCCN)NC2=O — MIC (PAO1; 18 h): > 256 µg/mL
CC(C)[C@H](NC(=O)[C@H](CCCCN)NC(=O)[C@H](CCCNC(=N)N)NC(=O)[C@@H](NC(=O)[C@H](C)NC(=O)[C@H](CC(N)=O)NC(=O)[C@H](CCCNC(=N)N)NC(=O)[C@@H](NC(=O)[C@H](CCCCN)NC(=O)[C@H](CCCCN)NC(=O)[C@@H](NC(=O)[C@@H](NC(=O)[C@H](CCCNC(=N)N)NC(=O)[C@H](CCCNC(=N)N)NC(=O)[C@H](Cc1c[nH]c2ccccc12)NC(=O)[C@H](Cc1c[nH]c2ccccc12)NC(=O)CN)[C@@H](C)O)C(C)C)C(C)C)C(C)C)C(=O)O — MIC (CMCC 10104; 18 h, 37 °C): 8 µg/mL
